{"data": "Measurements gathered from unrelated publications", "note": "Parts stem from different laboratories: compare values within a part only."}
{"data": "Study 1", "target": "Interferon regulatory factor 5, full length, phosphomimetic (IRF5, Homo sapiens, UniProt Q13568-2, residues 1-514, S451D/S453D/S456D/S462D)", "method": "protein-binding microarray", "molecule type": "double-stranded DNA, one strand shown", "sample": "in vitro", "tested at": "940 nM top", "notes": "60-bp whole probe", "together with": "salmon DNA 0.4 mg/ml", "baseline": "random background probes", "direction": "higher = stronger binding", "constant ends, left off below": "GCCTAGCAC … GTCTTGATTCGCTTGACGCTGCTG"}
{"Sequence": "GACGGTCTCCTTATCCTGATGTGCTAG", "fitted relative affinity [z-score]": 0.414}
{"Sequence": "TTAGAAGTGAGTCTCGATTAGTGCTAG", "fitted relative affinity [z-score]": 2.84}
{"Sequence": "TTAGATTTCATTTTCGATTAGTGCTAG", "fitted relative affinity [z-score]": 2.61}
{"Sequence": "TCATCTCTGCTCTTTTCAACTGTGCTA", "fitted relative affinity [z-score]": 1.58}
{"Sequence": "GACGCACTGGGACTGGGGACGTGCTAG", "fitted relative affinity [z-score]": -0.491}
{"Sequence": "TTAGGTTCCCTTTTCCTTGAGTGCTAG", "fitted relative affinity [z-score]": 0.816}
{"Sequence": "TCAATTGTCTCTGTCCCACTGTGCTAG", "fitted relative affinity [z-score]": 1.4}
{"Sequence": "TTAGGACGGCTTTTCCTTTAGTGCTAG", "fitted relative affinity [z-score]": -0.222}
{"Sequence": "TCAGATCTCAGACTGTGACTGTGCTAG", "fitted relative affinity [z-score]": -0.293}
{"Sequence": "GTAGTAATCTTAAGGCTGTCGTGCTAG", "fitted relative affinity [z-score]": -0.474}
{"Sequence": "TTAGGTTTCCGTTCCCTTTAGTGCTAG", "fitted relative affinity [z-score]": 2.9}
{"Sequence": "TTAGATTTCGGGCCTGGATTAGTGCTA", "fitted relative affinity [z-score]": 0.332}
{"Sequence": "GACGGTTTCGGTTCCCGGACGTGCTAG", "fitted relative affinity [z-score]": 15.6}
{"Sequence": "TTAGGTCTCCGTTTCGGTTAGTGCTAG", "fitted relative affinity [z-score]": 3.52}
{"Sequence": "TATTTTTTTCTAATTGAAATGTGCTAG", "fitted relative affinity [z-score]": 0.32}
{"Sequence": "TTAGGTTTCGACTATGGGTTAGTGCTA", "fitted relative affinity [z-score]": 9.42}
{"Sequence": "GACGGTTTCGACTATCGGGGCGTGCTA", "fitted relative affinity [z-score]": 8.65}
{"Sequence": "TCAATTTTTTTTTTCATACTGTGCTAG", "fitted relative affinity [z-score]": 1.58}
{"Sequence": "GACGATTTCAGTATCGGGACGTGCTAG", "fitted relative affinity [z-score]": 2.55}
{"data": "Study 2", "target": "Sal-like protein 4, full length isoform B (SALL4, Homo sapiens, UniProt Q9UJQ4-2, residues 1-616)", "method": "universal PBM", "molecule type": "double-stranded DNA, one strand shown", "sample": "in vitro", "tested at": "not given", "notes": "8-mer, flanks averaged, mean of replicates", "direction": "higher = stronger binding", "Residues (chain)": "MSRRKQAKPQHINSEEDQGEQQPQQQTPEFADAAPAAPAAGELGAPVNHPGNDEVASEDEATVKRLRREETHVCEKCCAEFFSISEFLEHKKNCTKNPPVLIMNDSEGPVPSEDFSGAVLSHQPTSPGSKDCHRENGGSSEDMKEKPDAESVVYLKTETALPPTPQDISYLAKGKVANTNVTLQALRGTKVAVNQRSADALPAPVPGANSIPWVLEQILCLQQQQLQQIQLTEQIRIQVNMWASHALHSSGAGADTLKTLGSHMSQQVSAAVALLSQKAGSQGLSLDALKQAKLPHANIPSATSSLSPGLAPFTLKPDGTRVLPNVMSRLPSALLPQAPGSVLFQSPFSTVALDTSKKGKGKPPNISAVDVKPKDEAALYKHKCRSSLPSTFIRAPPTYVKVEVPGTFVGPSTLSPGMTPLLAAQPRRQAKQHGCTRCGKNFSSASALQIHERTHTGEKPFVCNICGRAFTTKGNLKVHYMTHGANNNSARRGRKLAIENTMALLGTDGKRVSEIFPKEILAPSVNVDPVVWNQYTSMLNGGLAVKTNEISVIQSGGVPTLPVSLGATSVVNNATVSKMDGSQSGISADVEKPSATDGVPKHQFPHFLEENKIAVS"}
{"Sequence": "GAAGTTGC", "E-score": -0.241}
{"Sequence": "CCCTAACA", "E-score": 0.0922}
{"Sequence": "AGCAATAC", "E-score": 0.191}
{"Sequence": "AAGTACGC", "E-score": -0.00826}
{"Sequence": "TCACCTCA", "E-score": -0.0824}
{"Sequence": "ATTCACGC", "E-score": -0.0284}
{"Sequence": "AAGCGGGA", "E-score": -0.152}
{"Sequence": "ACTTTTTC", "E-score": 0.148}
{"Sequence": "ACGGCTCA", "E-score": -0.167}
{"Sequence": "AGAGCGCC", "E-score": -0.24}
{"Sequence": "CTCGAAGC", "E-score": -0.21}
{"Sequence": "TGGCATAA", "E-score": 0.3}
{"Sequence": "AGGTCTCA", "E-score": -0.0798}
{"Sequence": "CAGGTATA", "E-score": 0.0585}
{"Sequence": "CTTGTGCA", "E-score": -0.026}
{"Sequence": "AGCGAACA", "E-score": 0.0004}
{"Sequence": "ATCGTTGA", "E-score": 0.00724}
{"Sequence": "GATGGTTA", "E-score": 0.0555}
{"Sequence": "AGCATCGG", "E-score": -0.182}
{"Sequence": "ATCCTCCC", "E-score": -0.285}
{"Sequence": "ATGTGGTC", "E-score": -0.0181}
{"Sequence": "CGAAAATC", "E-score": 0.161}
{"Sequence": "ATTGAGGG", "E-score": -0.0854}
{"Sequence": "AGTATCCG", "E-score": -0.0199}
{"Sequence": "CACCAGTC", "E-score": -0.343}
{"data": "Study 3", "target": "Histone acetyltransferase KAT6A, winged helix 2, GST fusion (KAT6A, Homo sapiens, UniProt Q92794, residues 85-181)", "method": "protein binding microarray", "molecule type": "double-stranded DNA, one strand shown", "sample": "in vitro", "tested at": "not given", "notes": "8-mer, flanks averaged, mean of 2 arrays, mostly near background", "baseline": "not given", "direction": "higher = stronger binding", "Target sequence (chain)": "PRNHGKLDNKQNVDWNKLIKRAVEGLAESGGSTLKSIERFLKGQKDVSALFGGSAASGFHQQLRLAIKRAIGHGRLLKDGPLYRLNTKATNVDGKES"}
{"Sequence": "CAGGTACA", "E-score": -0.111}
{"Sequence": "TCTAGAGA", "E-score": -0.0932}
{"Sequence": "GACATTGC", "E-score": -0.0433}
{"Sequence": "AGAAAATA", "E-score": 0.0669}
{"Sequence": "ATTTGGAC", "E-score": 0.00242}
{"Sequence": "CCCGTTTC", "E-score": 0.021}
{"Sequence": "CAATCACG", "E-score": -0.00592}
{"Sequence": "ATGATTGC", "E-score": 0.1}
{"Sequence": "ACCCAGCA", "E-score": 0.0663}
{"Sequence": "TGCGACCA", "E-score": 0.123}
{"Sequence": "GACACAAC", "E-score": -0.056}
{"Sequence": "AGATCAGC", "E-score": 0.186}
{"Sequence": "ACGAGGCC", "E-score": -0.061}
{"Sequence": "GACTGACC", "E-score": -0.0994}
{"Sequence": "AAGCAGGT", "E-score": 0.0941}
{"Sequence": "GGATCCAA", "E-score": 0.0352}
{"Sequence": "AGGTGATG", "E-score": -0.137}
{"Sequence": "CGCGTACG", "E-score": 0.0444}
{"Sequence": "GTATAGTA", "E-score": -0.226}
{"Sequence": "GACTGAGA", "E-score": -0.0917}
{"Sequence": "CGATTATC", "E-score": 0.00422}
{"Sequence": "CACCGACG", "E-score": 0.138}
{"Sequence": "AGATGTAA", "E-score": 0.0209}
{"Sequence": "CTGGCCAG", "E-score": -0.0847}
{"Sequence": "CGAGAGGC", "E-score": -0.053}
{"data": "Study 4", "target": "RNA binding protein fox-1 homolog 2, RRM domain, GST-SBP tag (RBFOX2, Homo sapiens, UniProt O43251-10, residues 100-194)", "method": "RNA Bind-n-Seq", "molecule type": "RNA", "sample": "in vitro", "tested at": "365 nM", "notes": "natural RNA segment, single round, ends assumed", "baseline": "no-protein control", "direction": "higher = stronger binding", "constant ends, left off below": "GGGAGUUCUACAGUCCGACGAUC … UGGAAUUCUCGGGUGCCAA", "Construct (chain)": "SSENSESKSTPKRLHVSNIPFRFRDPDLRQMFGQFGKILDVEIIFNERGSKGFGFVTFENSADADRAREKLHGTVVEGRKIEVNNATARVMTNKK"}
{"Sequence": "UUAAACAUACCUGUGUUUUGAGAAGUGUCCUUCCCACUUUGGGCUUUCAGAAGGAAUACUUGGUUCUUUCUGGGGUCUCUAAUGUUCUCAGCCAAAACCUGGCCUGGCUA", "RBNS enrichment (R)": 0.312}
{"Sequence": "CCGGCCCGGGCGUCCUCCGCCAGCUCCUGUGACCAGCGCGUCUCCCGAUGCUCUCCGCCGUGUUCGUGUCCCCAGGCGCCCUCGCUGCAGCCCCGCCCCCGUGGGUCUCU", "RBNS enrichment (R)": 0.383}
{"Sequence": "UGUGUGUGCAGUUCAAUCCCGAGGACUGGAAUUUGGAUCCCACCACACACAUAACAAGCCACAUAUUCUGUAAAAGCCUGAGAGAUUCCAGCCCAGAGAGAUUUGAUGCU", "RBNS enrichment (R)": 0.64}
{"Sequence": "AUGAUUAGUAUUACUUGAAUGCAUCCAGAGGAUAUUUAAACCAAAAUGAAAAACCAGAAGGCCAUUUGGUGUCCCCCCUCCCAGGUGUCCCCUUGUAGCAUAUGCAUUAU", "RBNS enrichment (R)": 1.2}
{"Sequence": "CAGGAUCCCAGACGUUCAGAACCAGAUUCUCAUUGCUUUGUAUCUUUCACGUUGUUUUCGCUGCUAUUGGAGGGUCAGUUUUGUUUUGUUUUGUUUUACAAUGUCAGACU", "RBNS enrichment (R)": 0.497}
{"Sequence": "GAGAACGGGAGAACAGGUCUAAGGAAUUGUACCUUGAUGUGCUCUGCAAAGGAGAUAACGAAUGGGGCGCAGGGUAGACAAGAACAAGACCCCUCCCCACAGAGGAAGCC", "RBNS enrichment (R)": 0.617}
{"Sequence": "CUUCUCUUACCAGAGCAUCUGUUUGCAGAGGUAACAUUACCUUCCCCAGCCACAGGUAUGUGGAAUACGGUGAGGAAAAAAAAAAUUAAAAAAAAAAUGCAAGCUGUCAG", "RBNS enrichment (R)": 0.399}
{"Sequence": "GGGUUGCGGUGCAUGAAACCGCUGGGUCCUGGCUGUCACUCCUGUUGGGGGUCUGAAGGUGGCUGGCACUGGGCCUCAGGUCACCCUGAGCCAGUCCCGUGGCCACUUCA", "RBNS enrichment (R)": 4.51}
